Results pooled from the literature.
Compare with care: the assays were run in different laboratories. Numbers after ± are the reported error.

| Compound | assay | test system | setting | how to read | endpoint | value |
| --- | --- | --- | --- | --- | --- | --- |
| CC(C)C[C@H](NC(=O)[C@@H]1CCCN1C(=O)[C@H](CCCCN)NC(=O)[C@@H](N)CO)C(=O)N1CCC[C@H]1C(=O)N[C@@H](CCC(=O)O)C(=O)N[C@H](C(=O)N[C@H](C(=O)N[C@@H](CC(=O)O)C(=O)N[C@@H](CCC(=O)O)C(=O)N[C@@H](Cc1ccc(O)cc1)C(=O)N[C@@H](Cc1cn(CCOCCOCCOCCNC(=O)CCc2ccc(O)c(CN(CCN(CC(=O)O)Cc3cc(CCC(=O)NCCCC[C@H](NC(=O)N[C@@H](CCC(=O)O)C(=O)O)C(=O)O)ccc3O)CC(=O)O)c2)nn1)C(=O)O)[C@@H](C)O)C(C)C [gallium-68 labelled] |  | NMRI nu/nu mice, LNCaP tumour, kidneys | 135.34 nmol/kg, low molar activity |  | standardized uptake value | 7.38 g/g |
| C[C@@H](O)[C@H](NC(=O)[C@@H]1CSSC[C@H](NC(=O)[C@@H](Cc2ccccc2)NC(=O)CN2CCN(CC(N)=O)CCN(CC(N)=O)CCN(CC(N)=O)CC2)C(=O)N[C@@H](Cc2ccc(O)cc2)C(=O)N[C@H](Cc2c[nH]c3ccccc23)C(=O)N[C@@H](CCCCN)C(=O)N[C@@H]([C@@H](C)O)C(=O)N1)C(=O)O [lead-212 labelled] |  | CD-1 mice | 2 x 20 µCi, three-week interval, within four weeks |  | mortality | 50% |
| N=C(N)NCCC[C@@H]1NC(=O)[C@H](CCCCNC(=O)CCOCCOCCOCCOCCNC(=O)CN2CCN(CC(=O)O)CCN(CC(=O)O)CCN(CC(=O)O)CC2)NC(=O)[C@@H](Cc2ccccc2)NC(=O)[C@H](CC(=O)O)NC(=O)CNC1=O [indium-111 labelled] |  | athymic nude mice, female, U-87 MG glioma xenograft, tumour and liver | intravenous, 1 h | reference: tumour over liver | tumour to tissue ratio | 2.55 ± 0.42 |
| CCCC[C@H](NC(=O)CNC(=O)CNC(=O)CNC(=O)c1ccc(NN)nc1)C(=O)N[C@H]1CC(=O)NCCCC[C@@H](C(N)=O)NC(=O)[C@H](Cc2c[nH]c3ccccc23)NC(=O)[C@H](CCCNC(=N)N)NC(=O)[C@@H](Cc2ccccc2)NC(=O)[C@H](Cc2c[nH]cn2)NC1=O [technetium-99m labelled] |  | C57 mouse, B16/F1 melanoma, tumor | intravenous, 2 h |  | uptake | 9.78 ± 3.4 %ID/g |
| N=C(N)NCCC[C@@H]1NC(=O)[C@H](CCCCNC(=O)CCOCCOCCOCCOCCNC(=O)CC[C@H](NC(=O)CCOCCOCCOCCOCCNC(=O)CC[C@H](NC(=O)CN2CCN(CC(=O)O)CCN(CC(=O)O)CCN(CC(=O)O)CC2)C(=O)NCCOCCOCCOCCOCCC(=O)N[C@@H](CCC(=O)NCCOCCOCCOCCOCCC(=O)NCCCC[C@@H]2NC(=O)[C@@H](Cc3ccccc3)NC(=O)[C@H](CC(=O)O)NC(=O)CNC(=O)[C@H](CCCNC(=N)N)NC2=O)C(=O)NCCOCCOCCOCCOCCC(=O)NCCCC[C@@H]2NC(=O)[C@@H](Cc3ccccc3)NC(=O)[C@H](CC(=O)O)NC(=O)CNC(=O)[C@H](CCCNC(=N)N)NC2=O)C(=O)NCCOCCOCCOCCOCCC(=O)NCCCC[C@@H]2NC(=O)[C@@H](Cc3ccccc3)NC(=O)[C@H](CC(=O)O)NC(=O)CNC(=O)[C@H](CCCNC(=N)N)NC2=O)NC(=O)[C@@H](Cc2ccccc2)NC(=O)[C@H](CC(=O)O)NC(=O)CNC1=O [indium-111 labelled] |  | athymic nude mice, female, U-87 MG glioma xenograft, tumour and kidney | intravenous, 24 h | reference: tumour over kidney | tumour to tissue ratio | 1.6 ± 0.39 |
| CC(C)C[C@@H]1NC(=O)[C@H](C(C)C)NC(=O)[C@H](CO)NC(=O)CNC(=O)CNC(=O)[C@H](CCCNC(=N)N)NC(=O)[C@@H]2CCCN2C(=O)[C@@H](NC(=O)CC[C@H](NC(=O)c2ccc(N(C)Cc3cnc4nc(N)nc(N)c4n3)cc2)C(=O)O)C(C)(C)SSC[C@@H](C(=O)O)NC(=O)CNC(=O)[C@H]([C@@H](C)O)NC(=O)[C@H](C(C)C)NC1=O | chemical stability | HCl solution | 100 µM, pH 1.0, 70 °C |  | half-life | 1.32 h |
| C[C@H](NC(=O)CNC(=O)[C@H](CCC(=O)O)NC(=O)[C@H](CCC(=O)O)NC(=O)[C@H](CC(=O)O)NC(=O)[C@@H]1CCCN1C(=O)[C@H](Cc1ccccc1)NC(=O)[C@H](CS)NC(=O)[C@H](Cc1ccc(O)cc1)NC(=O)CCCNC(=O)CNC(=O)CNC(=O)[C@@H](C)NC(=O)CN)C(=O)N[C@@H](CS)C(=O)N[C@@H](Cc1ccc(O)cc1)C(N)=O [technetium-99m labelled] |  | KM mice, blood | intravenous, dose not given, 60 min | reference: 1 min value | blood radioactivity remaining | 3.42% |
| CCCC[C@H](NC(=O)CCCCCCCNC(=O)c1ccc(NN)nc1)C(=O)N[C@H]1CC(=O)NCCCC[C@@H](C(N)=O)NC(=O)[C@H](Cc2c[nH]c3ccccc23)NC(=O)[C@H](CCCNC(=N)N)NC(=O)[C@@H](Cc2ccccc2)NC(=O)[C@H](Cc2c[nH]cn2)NC1=O [technetium-99m labelled] |  | C57 mouse, B16/F1 melanoma, muscle | intravenous, 24 h |  | uptake | 0.02 ± 0.01 %ID/g |
| CCCC[C@H](NC(=O)CNC(=O)CNC(=O)c1ccc(NN)nc1)C(=O)N[C@H]1CC(=O)NCCCC[C@@H](C(N)=O)NC(=O)[C@H](Cc2c[nH]c3ccccc23)NC(=O)[C@H](CCCNC(=N)N)NC(=O)[C@@H](Cc2ccccc2)NC(=O)[C@H](Cc2c[nH]cn2)NC1=O [technetium-99m labelled] |  | C57 mouse, B16/F1 melanoma, muscle | 2 h, added: NDP-MSH 6.07 nmol blockade |  | uptake | 0.03 ± 0.02 %ID/g |
| N=C(N)NCCC[C@@H]1NC(=O)[C@H](CC(=O)O)NC(=O)[C@@H](Cc2ccccc2)NC(=O)[C@H](CCCCNC(=O)CCOCCOCCOCCOCCNC(=O)CC[C@H](NC(=O)CCOCCOCCOCCOCCNC(=O)CC[C@H](NC(=O)CN2CCN(CC(=O)O)CCN(CC(=O)O)CCN(CC(=O)O)CC2)C(=O)NCCOCCOCCOCCOCCC(=O)N[C@@H](CCC(=O)NCCOCCOCCOCCOCCC(=O)NCCCC[C@@H]2NC(=O)CNC(=O)[C@H](CCCNC(=N)N)NC(=O)[C@H](CC(=O)O)NC(=O)[C@@H](Cc3ccccc3)NC2=O)C(=O)NCCOCCOCCOCCOCCC(=O)NCCCC[C@@H]2NC(=O)CNC(=O)[C@H](CCCNC(=N)N)NC(=O)[C@H](CC(=O)O)NC(=O)[C@@H](Cc3ccccc3)NC2=O)C(=O)NCCOCCOCCOCCOCCC(=O)NCCCC[C@@H]2NC(=O)CNC(=O)[C@H](CCCNC(=N)N)NC(=O)[C@H](CC(=O)O)NC(=O)[C@@H](Cc3ccccc3)NC2=O)NC(=O)CNC1=O [indium-111 labelled] |  | octanol/water |  |  | log P | -3.61 ± 0.07 |
| C[C@@H]1NC(=O)[C@H](CCC(=O)O)NC(=O)CNC(=O)[C@H](CC(=O)O)NC(=O)CNC(=O)[C@H](CCCCNC(=O)CCCCCNC(=O)[C@H](CS)NC(=O)CCCCCNC(=O)CN2CCN(CC(=O)O)CCN(CC(=O)O)CCN(CC(=O)O)CC2)NC(=O)[C@@H](Cc2ccc(O)cc2)NC1=O [gallium-68 labelled] |  | mouse serum | concentration not given, 1.5 h, 37 °C, 90% serum |  | soluble radioactivity | 87% |
| N=C(N)NCCC[C@@H]1NC(=O)[C@H](CCCCNC(=O)CNC(=O)CNC(=O)CNC(=O)CC[C@H](NC(=O)CCOCCOCCOCCOCCNC(=O)CC[C@H](NC(=O)CN2CCN(CC(=O)O)CCN(CC(=O)O)CCN(CC(=O)O)CC2)C(=O)NCCOCCOCCOCCOCCC(=O)N[C@@H](CCC(=O)NCC(=O)NCC(=O)NCC(=O)NCCCC[C@@H]2NC(=O)[C@@H](Cc3ccccc3)NC(=O)[C@H](CC(=O)O)NC(=O)CNC(=O)[C@H](CCCNC(=N)N)NC2=O)C(=O)NCC(=O)NCC(=O)NCC(=O)NCCCC[C@@H]2NC(=O)[C@@H](Cc3ccccc3)NC(=O)[C@H](CC(=O)O)NC(=O)CNC(=O)[C@H](CCCNC(=N)N)NC2=O)C(=O)NCC(=O)NCC(=O)NCC(=O)NCCCC[C@@H]2NC(=O)[C@@H](Cc3ccccc3)NC(=O)[C@H](CC(=O)O)NC(=O)CNC(=O)[C@H](CCCNC(=N)N)NC2=O)NC(=O)[C@@H](Cc2ccccc2)NC(=O)[C@H](CC(=O)O)NC(=O)CNC1=O [indium-111 labelled] |  | female athymic nude mice, spleen | intravenous, 3 µCi, 1 h, U-87 MG glioma xenograft |  | tissue uptake | 2.02 ± 0.34 %ID/g |
| CSCC[C@H](NC(=O)[C@H](CC(C)C)NC(=O)[C@H](Cc1c[nH]cn1)NC(=O)CNC(=O)[C@@H](NC(=O)[C@H](C)NC(=O)[C@H](Cc1c[nH]c2ccccc12)NC(=O)[C@H](CCC(N)=O)NC(=O)CCCCCNC(=O)CNC(=O)CNC(=O)CNC(=O)CSC(C)=O)C(C)C)C(N)=O [technetium-99m labelled] |  | nude mouse, PC-3 xenograft, bone | 90 min, added: excess unlabelled conjugate |  | tissue uptake | 0.29 ± 0.02 %ID/g |
| N=C(N)NCCC[C@@H]1NC(=O)[C@H](CCCCNC(=O)CC[C@H](NC(=O)CCOCCOCCOCCOCCNC(=O)CN2CCN(CC(=O)O)CCN(CC(=O)O)CCN(CC(=O)O)CC2)C(=O)NCCCC[C@@H]2NC(=O)[C@@H](Cc3ccccc3)NC(=O)[C@H](CC(=O)O)NC(=O)CNC(=O)[C@H](CCCNC(=N)N)NC2=O)NC(=O)[C@@H](Cc2ccccc2)NC(=O)[C@H](CC(=O)O)NC(=O)CNC1=O [indium-111 labelled] |  | female athymic nude mice, kidney | intravenous, 3 µCi, 1 h, U-87 MG glioma xenograft |  | tissue uptake | 4.45 ± 0.21 %ID/g |
| C[C@@H](O)[C@H](NC(=O)[C@@H]1CSSC[C@H](NC(=O)[C@@H](Cc2ccccc2)NC(=O)CN2CCCN3CCN(CCCN(CP(=O)(O)O)CC3)CC2)C(=O)N[C@@H](Cc2ccc(O)cc2)C(=O)N[C@H](Cc2c[nH]c3ccccc23)C(=O)N[C@@H](CCCCN)C(=O)N[C@@H]([C@@H](C)O)C(=O)N1)C(=O)O [copper-64 labelled] |  | Lewis rat, male, tumour-bearing | 4 h | reference: tumour over blood | tumour-to-tissue ratio | 76 ± 20 |

For quick reference, copied from above:
| Compound | assay | test system | setting | how to read | endpoint | value |
| --- | --- | --- | --- | --- | --- | --- |
| CC(C)C[C@H](NC(=O)[C@@H]1CCCN1C(=O)[C@H](CCCCN)NC(=O)[C@@H](N)CO)C(=O)N1CCC[C@H]1C(=O)N[C@@H](CCC(=O)O)C(=O)N[C@H](C(=O)N[C@H](C(=O)N[C@@H](CC(=O)O)C(=O)N[C@@H](CCC(=O)O)C(=O)N[C@@H](Cc1ccc(O)cc1)C(=O)N[C@@H](Cc1cn(CCOCCOCCOCCNC(=O)CCc2ccc(O)c(CN(CCN(CC(=O)O)Cc3cc(CCC(=O)NCCCC[C@H](NC(=O)N[C@@H](CCC(=O)O)C(=O)O)C(=O)O)ccc3O)CC(=O)O)c2)nn1)C(=O)O)[C@@H](C)O)C(C)C [gallium-68 labelled] |  | NMRI nu/nu mice, LNCaP tumour, kidneys | 135.34 nmol/kg, low molar activity |  | standardized uptake value | 7.38 g/g |
| C[C@@H](O)[C@H](NC(=O)[C@@H]1CSSC[C@H](NC(=O)[C@@H](Cc2ccccc2)NC(=O)CN2CCN(CC(N)=O)CCN(CC(N)=O)CCN(CC(N)=O)CC2)C(=O)N[C@@H](Cc2ccc(O)cc2)C(=O)N[C@H](Cc2c[nH]c3ccccc23)C(=O)N[C@@H](CCCCN)C(=O)N[C@@H]([C@@H](C)O)C(=O)N1)C(=O)O [lead-212 labelled] |  | CD-1 mice | 2 x 20 µCi, three-week interval, within four weeks |  | mortality | 50% |
| N=C(N)NCCC[C@@H]1NC(=O)[C@H](CCCCNC(=O)CCOCCOCCOCCOCCNC(=O)CN2CCN(CC(=O)O)CCN(CC(=O)O)CCN(CC(=O)O)CC2)NC(=O)[C@@H](Cc2ccccc2)NC(=O)[C@H](CC(=O)O)NC(=O)CNC1=O [indium-111 labelled] |  | athymic nude mice, female, U-87 MG glioma xenograft, tumour and liver | intravenous, 1 h | reference: tumour over liver | tumour to tissue ratio | 2.55 ± 0.42 |
